Assay results pooled from the literature.
Compare with care: the assays were run in different laboratories. Values joined by “and” are separate records of one study, mostly repeats; a detail may differ.
AURKB: Aurora kinase B (AURKB, Homo sapiens, UniProt Q96GD4)
Sequence of UniProt Q96GD4 (whole entry, looked up): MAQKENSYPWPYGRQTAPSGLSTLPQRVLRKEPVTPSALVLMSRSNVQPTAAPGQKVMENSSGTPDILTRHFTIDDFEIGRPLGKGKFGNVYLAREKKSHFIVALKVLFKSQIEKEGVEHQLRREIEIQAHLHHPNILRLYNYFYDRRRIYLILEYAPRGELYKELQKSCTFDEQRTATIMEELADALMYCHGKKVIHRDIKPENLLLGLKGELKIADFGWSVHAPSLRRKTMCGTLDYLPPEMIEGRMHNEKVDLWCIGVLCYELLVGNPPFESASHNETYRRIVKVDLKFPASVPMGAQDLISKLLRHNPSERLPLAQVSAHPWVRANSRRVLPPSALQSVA
Sequence of UniProt Q96L34 (whole entry, looked up): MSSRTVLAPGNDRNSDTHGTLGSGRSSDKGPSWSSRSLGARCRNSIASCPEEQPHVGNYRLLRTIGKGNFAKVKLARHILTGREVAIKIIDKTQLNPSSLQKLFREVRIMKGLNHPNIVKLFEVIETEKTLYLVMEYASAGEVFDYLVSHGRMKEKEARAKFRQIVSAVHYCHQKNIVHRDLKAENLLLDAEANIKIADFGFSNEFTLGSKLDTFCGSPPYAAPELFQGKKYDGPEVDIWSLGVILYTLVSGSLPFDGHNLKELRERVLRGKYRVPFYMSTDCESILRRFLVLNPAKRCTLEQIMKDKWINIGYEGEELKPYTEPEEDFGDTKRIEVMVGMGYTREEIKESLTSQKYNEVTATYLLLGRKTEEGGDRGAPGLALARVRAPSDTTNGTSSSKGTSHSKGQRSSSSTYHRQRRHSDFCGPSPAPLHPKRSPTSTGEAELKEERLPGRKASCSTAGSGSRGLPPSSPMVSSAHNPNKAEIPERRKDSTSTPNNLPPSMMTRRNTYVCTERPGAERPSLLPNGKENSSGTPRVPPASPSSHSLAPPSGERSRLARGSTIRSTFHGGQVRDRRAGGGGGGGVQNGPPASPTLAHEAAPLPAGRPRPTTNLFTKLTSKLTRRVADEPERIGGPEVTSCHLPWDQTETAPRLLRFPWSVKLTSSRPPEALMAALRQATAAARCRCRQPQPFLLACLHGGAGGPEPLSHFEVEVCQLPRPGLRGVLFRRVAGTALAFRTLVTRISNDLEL
Sequence of UniProt Q05397 (whole entry, looked up): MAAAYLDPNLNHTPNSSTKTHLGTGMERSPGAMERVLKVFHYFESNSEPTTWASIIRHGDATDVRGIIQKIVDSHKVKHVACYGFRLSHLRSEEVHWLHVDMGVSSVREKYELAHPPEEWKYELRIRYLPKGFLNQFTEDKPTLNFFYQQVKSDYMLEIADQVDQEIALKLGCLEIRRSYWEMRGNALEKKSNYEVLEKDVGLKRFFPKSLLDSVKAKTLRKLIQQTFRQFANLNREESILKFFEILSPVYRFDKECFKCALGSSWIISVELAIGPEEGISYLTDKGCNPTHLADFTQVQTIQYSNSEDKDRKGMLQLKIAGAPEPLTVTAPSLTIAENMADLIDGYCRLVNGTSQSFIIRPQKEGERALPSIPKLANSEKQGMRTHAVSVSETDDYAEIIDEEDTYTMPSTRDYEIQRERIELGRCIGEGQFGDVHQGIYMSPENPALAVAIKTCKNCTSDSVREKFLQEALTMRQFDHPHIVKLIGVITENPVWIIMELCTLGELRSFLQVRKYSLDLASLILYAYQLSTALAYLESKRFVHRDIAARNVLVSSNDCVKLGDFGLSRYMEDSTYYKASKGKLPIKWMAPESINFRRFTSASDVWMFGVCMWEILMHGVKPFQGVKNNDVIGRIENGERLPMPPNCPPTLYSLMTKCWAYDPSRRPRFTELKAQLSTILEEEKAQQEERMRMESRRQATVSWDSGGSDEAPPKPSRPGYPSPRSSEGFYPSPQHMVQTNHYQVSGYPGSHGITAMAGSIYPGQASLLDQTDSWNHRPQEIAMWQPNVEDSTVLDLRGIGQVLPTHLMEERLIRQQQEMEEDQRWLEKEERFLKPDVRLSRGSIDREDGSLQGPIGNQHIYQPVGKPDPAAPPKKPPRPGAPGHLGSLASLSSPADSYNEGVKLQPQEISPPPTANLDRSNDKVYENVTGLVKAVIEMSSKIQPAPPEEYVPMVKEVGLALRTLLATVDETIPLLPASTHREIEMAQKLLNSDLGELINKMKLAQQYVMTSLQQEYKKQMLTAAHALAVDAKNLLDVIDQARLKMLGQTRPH
Sequence of UniProt Q96PN8 (whole entry, looked up): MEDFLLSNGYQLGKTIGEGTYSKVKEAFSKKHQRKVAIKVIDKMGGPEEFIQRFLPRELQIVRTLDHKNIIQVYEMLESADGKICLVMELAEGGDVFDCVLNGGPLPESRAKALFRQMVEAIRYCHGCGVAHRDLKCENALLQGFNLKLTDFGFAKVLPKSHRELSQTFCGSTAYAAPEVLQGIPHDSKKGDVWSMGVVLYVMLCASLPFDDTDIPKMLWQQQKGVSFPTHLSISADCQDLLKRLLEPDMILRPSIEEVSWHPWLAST

Compound | tested on | test | conditions | measurement | result
COc1cccc2c1C(=O)c1c(O)c3c(c(O)c1C2=O)C[C@@](O)(C(=O)CO)C[C@@H]3O[C@H]1C[C@H](N)[C@H](O)[C@H](C)O1 | WI-38 | cell growth or viability, MTT | 12.5 µM, 24 h | viability | 34%
CC(=O)c1nn(-c2ccc(C)cc2)/c(=N/N=C(\C)c2ccc(NC(=O)c3ccccc3)cc2)s1 | WI-38 | cell growth or viability, MTS | 2.5 µM, 24 h | viability | 3.48%
COc1cccc(NC(=O)Nc2ccc(Oc3nc4ccccc4n4cnnc34)cc2)c1 | WI-38 | cell growth or viability, MTT | 12.5 µM, 24 h | viability | 87.1%
Nc1ccn([C@@H]2O[C@H](CO)[C@@H](O)C2(F)F)c(=O)n1 | HEK293 | cell growth or viability, MTT | 10 µg/mL, 24 h | viability | 10.7%
COc1cc(N2CCC(N3CCN(C)CC3)CC2)ccc1Nc1ncc(Cl)c(Nc2ccccc2P(C)(C)=O)n1 | Ba/F3 EML4-ALK | cell growth or viability, CCK-8 | 1 µM, 1 h | viability | 64% and 68%
COc1cc(-c2cncc3c2CN(C)Cc2cc(N4CCNCC4)ccc2-3)cc(OC)c1OC | MARK4 (Homo sapiens, UniProt Q96L34) | enzyme activity, inhibitor | 1 µM | remaining activity | 105%
Cc1cc([C@@H](C)Nc2ccccc2C(=O)O)c2nc(N3CCC(F)(F)CC3)c(C#N)c(=O)n2c1 | PTK2 (Homo sapiens, UniProt Q05397) | binding, competition with immobilised ligand | 1 µM | remaining binding | 92%
CCCCC(=O)Nc1ccc(-c2ccc3ncn(CCC)c(=O)c3c2)cn1 | TSSK3 (Homo sapiens, UniProt Q96PN8) | binding, competition with immobilised ligand | 0.5 µM | remaining binding | 80%
N[C@H]1C(O)O[C@H](CO)[C@@H](O)[C@@H]1O (stereo partly drawn) | Caco-2 | cell growth or viability, CCK-8 | 1 µM | viability | 97.6%
O=C1CCCCC1=C1Sc2nc3ccc(S(=O)(=O)N4CCCC4)cc3nc2S1 | WI-38 | cell growth or viability, MTT | 100 µM, 24 h | viability | 47.9%
C=CC(=O)N1CCC(COCC(=O)N2CCN(c3nc(-c4cnc(N)nc4C(F)F)nc(N4CCOC[C@@H]4C)n3)CC2)CC1 | AURKB | binding, competition with immobilised ligand | 1 µM | remaining binding | 100%
COc1cccc2c1C(=O)c1c(O)c3c(c(O)c1C2=O)C[C@@](O)(C(=O)CO)C[C@@H]3O[C@H]1C[C@H](N)[C@H](O)[C@H](C)O1 | K562 | cell growth or viability, MTT | 6.25 µg/mL | viability | 76.1%
CNC(=O)c1cc(Oc2ccc(NC(=O)Nc3ccc(Cl)c(C(F)(F)F)c3)cc2)ccn1 | WI-38 | cell growth or viability, MTT | 3.125 µM, 24 h | viability | 78.6%
CNc1ncc2c(/C=C/C(=O)N3CCC(OC)CC3)nn(Cc3cccc(C(F)(F)F)c3)c2n1 | AURKB | enzyme activity, inhibitor, radiometric | 1 µM | remaining activity | 81%
N#CC(C(=O)Nc1cccc(C(F)(F)F)c1)=C1Sc2nc3ccc(S(=O)(=O)N4CCCC4)cc3nc2S1 | WI-38 | cell growth or viability, MTT | 6.25 µM, 24 h | viability | 96.1%

Some of these lines once more:
Compound | tested on | test | conditions | measurement | result
CC(=O)c1nn(-c2ccc(C)cc2)/c(=N/N=C(\C)c2ccc(NC(=O)c3ccccc3)cc2)s1 | WI-38 | cell growth or viability, MTS | 2.5 µM, 24 h | viability | 3.48%
